Measured values collected from several papers.
Each line is one published result; not all experiments were run side by side. ± marks the error that the study gave.

CN(C(=O)C(C)(C)c1cc(C(F)(F)F)cc(C(F)(F)F)c1)c1cnc(N2C[C@H]3COCCN3C[C@H]2CO)cc1-c1ccc(F)cc1[14CH3]  AUC extrapolated (human, plasma; oral, 120 mg): 1.11%
COc1ccc2[nH]c([S@+]([O-])Cc3ncc(C)c(OC)c3C)nc2c1  AUC fold decrease (human male, dried plasma spots; dose not given, with: rifampicin pretreatment; reference: control over induction): 10.9 fold
N#Cc1ccc(C(c2ccc(C#N)cc2)n2cncn2)cc1  AUC at steady state per dose (human patients, plasma; oral, 15 mg daily): 24.1 ± 3.71 µg·h/mL/mg
CC(C)(C(=O)N1CCOc2c(C#N)cncc2C1)C(F)F  AUC dose proportionality ratio (healthy humans, both sexes, plasma; oral, 40 mg single dose, 2-fold dose increase; reference: 40 mg over 20 mg): 2.15
COC(=O)N[C@H](C(=O)N1CCC[C@H]1c1ncc(-c2cc(F)c3c(c2)O[C@@H](c2cnc(C4CC4)s2)n2c-3cc3cc(-c4cnc([C@@H]5CCCN5C(=O)[C@@H](NC(=O)OC)C(C)C)[nH]4)ccc32)[nH]1)C(C)C  AUC increase (healthy adult humans; oral, dose not given; reference: moderate-fat meal over fasted): 63%
C[C@@H](Oc1ccc(S(C)(=O)=O)cc1C(=O)N1C[C@@H]2C[C@]2(c2cc(C(F)(F)F)on2)C1)C(F)(F)F  AUC increase (healthy human volunteers; oral, 10 mg single dose, with: Meal, high-fat, ~1000 kcal; reference: fasted state): 14%
CC1(C)CC[C@]2(NC(=O)C(C)(F)F)CC[C@]3(C)[C@H](C(=O)C=C4[C@@]5(C)C=C(C#N)C(=O)C(C)(C)[C@@H]5CC[C@]43C)[C@@H]2C1  AUC extrapolated percentage (human, plasma; oral, dose not given, with: efavirenz): 2.4%
N#Cc1cc(NC(=O)[C@H]2c3ccccc3C(=O)N(CC(F)(F)F)[C@@H]2c2cccnc2)ccc1F  AUC (human, plasma; oral, 75 mg, median): 2610 ng·h/mL
COc1ccc2nc([S@@+]([O-])Cc3ncc(CO)c(OC)c3C)[nH]c2c1  AUC ratio (human; concentration not given, mean over sessions; reference: (R)-OH-omeprazole over compound): 7 fold
N#Cc1ccc(C(c2ccc(C#N)cc2)n2cncn2)cc1  AUC at steady state (human; 125 mg): 3160 ng·h/mL
Nc1ccn([C@@H]2O[C@H](CO)[C@@H](O)C2(F)F)c(=O)n1  AUC extrapolated (human patients, plasma; intravenous, 800 mg/m2, median, after paricalcitol): 0.26%
C[C@@H](c1ccc2nccn2c1)n1nnc2ncc(-c3cnn(C)c3)nc21  AUC at steady state (human, plasma; oral, dose not given, cycle 2 day 1, multiple doses, all): 14900 ng·h/mL
C=CC(=O)N1CCC[C@@H](n2c(=O)n(-c3ccc(Oc4ccccc4)cc3)c3c(N)nccc32)C1  AUC fed/fasted ratio (human; oral, 120 mg; reference: fed over fasted): 1.54
CC#CC(=O)N1CCC[C@H]1c1nc(-c2ccc(C(=O)Nc3ccccn3)cc2)c2c(N)nccn12  AUC (human, plasma; oral, dose not given, 100 mg once daily dosing, with: rifampicin 600 mg): 150 ng·h/mL
C=CC(=O)Nc1cc(Nc2nccc(-c3cn(C)c4ccccc34)n2)c(OC)cc1N(C)CCN(C)C  AUC at steady state (human patients; oral, dose not given, cycle 3 day 1, geometric mean, with: chemotherapy): 11.8 µM·h
O=C(COc1ccc(Cl)cc1)NC12CC(c3nnc([C@H]4C[C@@H](OC(F)(F)F)C4)o3)(C1)C2  AUC (healthy human volunteers fasted, plasma; oral, 800 mg single dose, arithmetic mean): 776 µM·h
CC(C)(C#N)c1cc(Cn2cncn2)cc(C(C)(C)C#N)c1  AUC at steady state (human; 150 mg): 944 ng·h/mL
Cc1cc(-c2nccc3c2ccn3CC(=O)Nc2ccc(-c3cnccn3)cn2)ccn1  AUC (human, plasma; oral, 20 mg single dose, geometric mean): 1.55 µM·h

Excerpt of the above:
N#Cc1ccc(C(c2ccc(C#N)cc2)n2cncn2)cc1  AUC at steady state per dose (human patients, plasma; oral, 15 mg daily): 24.1 ± 3.71 µg·h/mL/mg
CC(C)(C(=O)N1CCOc2c(C#N)cncc2C1)C(F)F  AUC dose proportionality ratio (healthy humans, both sexes, plasma; oral, 40 mg single dose, 2-fold dose increase; reference: 40 mg over 20 mg): 2.15
COC(=O)N[C@H](C(=O)N1CCC[C@H]1c1ncc(-c2cc(F)c3c(c2)O[C@@H](c2cnc(C4CC4)s2)n2c-3cc3cc(-c4cnc([C@@H]5CCCN5C(=O)[C@@H](NC(=O)OC)C(C)C)[nH]4)ccc32)[nH]1)C(C)C  AUC increase (healthy adult humans; oral, dose not given; reference: moderate-fat meal over fasted): 63%
